Measured values pooled from the literature.
Parts stem from different laboratories: compare values within a part only.

Block 1 — method: universal PBM; form: double-stranded DNA, one strand shown; sample: in vitro; tested at: 600 nM; direction: higher = stronger binding; quantity: E-score
Target: Sal-like protein 4, full length isoform A (SALL4, Homo sapiens, UniProt Q9UJQ4, residues 1-1053)
UniProt Q9UJQ4, sequence (whole entry, looked up): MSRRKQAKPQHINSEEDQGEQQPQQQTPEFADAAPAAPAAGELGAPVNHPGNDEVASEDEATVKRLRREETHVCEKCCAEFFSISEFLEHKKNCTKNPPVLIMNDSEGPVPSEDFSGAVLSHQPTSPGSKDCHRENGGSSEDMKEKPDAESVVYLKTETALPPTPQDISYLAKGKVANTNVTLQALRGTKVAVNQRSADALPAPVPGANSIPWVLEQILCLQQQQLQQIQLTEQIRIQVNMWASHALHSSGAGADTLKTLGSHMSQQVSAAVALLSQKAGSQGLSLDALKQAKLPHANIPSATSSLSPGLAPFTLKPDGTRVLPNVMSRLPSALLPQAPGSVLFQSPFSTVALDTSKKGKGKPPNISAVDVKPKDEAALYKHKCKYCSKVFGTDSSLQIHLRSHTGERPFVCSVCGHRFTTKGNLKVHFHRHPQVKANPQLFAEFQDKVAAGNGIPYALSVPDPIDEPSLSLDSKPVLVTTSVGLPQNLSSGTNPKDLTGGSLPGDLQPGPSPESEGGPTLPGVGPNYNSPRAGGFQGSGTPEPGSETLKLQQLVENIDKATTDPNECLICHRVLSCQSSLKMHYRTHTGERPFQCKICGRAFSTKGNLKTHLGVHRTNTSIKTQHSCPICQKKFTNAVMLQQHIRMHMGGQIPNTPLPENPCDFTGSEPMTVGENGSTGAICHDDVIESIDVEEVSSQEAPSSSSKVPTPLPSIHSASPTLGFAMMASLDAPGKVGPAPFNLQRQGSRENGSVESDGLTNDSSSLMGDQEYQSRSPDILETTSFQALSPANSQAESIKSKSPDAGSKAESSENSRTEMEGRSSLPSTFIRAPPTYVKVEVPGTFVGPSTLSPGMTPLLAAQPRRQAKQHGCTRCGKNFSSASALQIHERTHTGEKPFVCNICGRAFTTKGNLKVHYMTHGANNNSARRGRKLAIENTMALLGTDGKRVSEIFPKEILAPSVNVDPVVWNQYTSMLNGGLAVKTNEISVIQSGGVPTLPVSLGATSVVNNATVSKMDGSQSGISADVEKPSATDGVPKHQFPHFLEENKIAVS
Notes: 8-mer, flanks averaged, mean of replicates
ATGAATTA: 0.377
GCAATGAC: -0.0234
GTATGACA: 0.249
AGTCGCAG: -0.066
AGAGAGAA: -0.0928
AGAATTCG: 0.0762
CGTCGTGA: -0.193
AGCTCTTG: -0.234
CAAGTCTG: -0.0822
GTATGGAA: 0.101
GTGTGGCA: -0.193
AGACATCA: 0.0483
GCGGATGA: -0.0917
CTGATTGA: 0.0271
AGCCACTG: -0.227
CCCGTCCC: -0.375
CTTAGCCA: -0.00294
AGCGGGTC: -0.365

Block 2 — method: aptamer microarray, sandwich; form: DNA with 2'F-ANA; sample: in vitro; tested at: 200 nM; together with: Cy3 exosite-II aptamer, 400 nM; direction: higher = stronger binding; quantity: mean fluorescence intensity; oligonucleotide: GGTTGGTGTGGTTGG
Target: Prothrombin, mature alpha-thrombin (F2, Homo sapiens, UniProt P00734)
Notes: whole 15-mer aptamer, many near background
2'F-ANA at 2 4 6 7 8 9 13 14: 81 a.u.
2'F-ANA at 2 4 5 7 8 11 12 15: 160 a.u.
2'F-ANA at 2 4 5 7 9 11 13 14: 47.5 a.u.
2'F-ANA at 1 2 3 7 8 9 10 11 13: 67.4 a.u.
2'F-ANA at 2 3 6 7 10 11: 336 a.u.
2'F-ANA at 2 3 7 8 10 13: 415 a.u.
2'F-ANA at 2 3 4 6 7 9 15: 480 a.u.
2'F-ANA at 1 2 3 5 10 11 12 13 14: 52 a.u.
2'F-ANA at 1 3 4 9 11 12 13 14 15: 67.3 a.u.
2'F-ANA at 2 5 6 10 11 12 14: 62.7 a.u.
2'F-ANA at 1 3 5 6 8 12 13 15: 97.7 a.u.
2'F-ANA at 5 7 9 10 11 13: 48 a.u.
2'F-ANA at 7 8 9 10 12: 224 a.u.
2'F-ANA at 1 3 5 9 14: 58 a.u.
2'F-ANA at 1 4 5 6 7 8 9 11 13 14 15: 97.7 a.u.
2'F-ANA at 1 2 6 8 9 11 14: 59.4 a.u.
2'F-ANA at 2 3 4 6 8 9 11 15: 409 a.u.
2'F-ANA at 1 3 4 6 7 8 9 10 11 12: 103 a.u.
2'F-ANA at 1 4 5 6 7 9 11 12 13 14: 53.2 a.u.
2'F-ANA at 1 2 3 4 10 11 13 15: 66.3 a.u.
2'F-ANA at 3 4 10 11 12 13 14: 201 a.u.

Block 3 — method: RNA Bind-n-Seq; form: RNA; sample: in vitro; tested at: 200 nM; notes: whole 134-nt RNA, ends assumed; together with: 150 mM KCl; baseline: input library; direction: higher = stronger binding; quantity: log2 enrichment
Target: Fragile X messenger ribonucleoprotein 1, C-terminal low-complexity region (Fmr1, Mus musculus, UniProt P35922)
All sequences stand within: GGGAGUUCUACAGUCCGACGAUC … UGGAAUUCUCGGGUGUCAAGG
AGUCCUGUGCUACACAUCGUAUGUACCGAAUCGGGGUUUUGGGUUUUGGGUUUUGGGAAAGUAUUAUGUUACGCCGUUCGGAUCUGCACU: 0.699
CCUCAAGUCCUGUGCUACACAUCGUAUGUACCGAAUCGGGCCGGCCGGCCGGGAAAGUAUUAUGUUACGCCGUUCGGAUCUGCACUUCCA: 0.0394
UGUGCUACACAUCGUAUGUACCGAAUCGGGGUUUUUUUGGGGUUUUUUUGGGGUUUUUUUGGGAAAGUAUUAUGUUACGCCGUUCGGAUC: 0.199
CUCAAGUCCUGUGCUACACAUCGUAUGUACCGAAUCGGUUUGGAAAGGUUUGGAAAGUAUUAUGUUACGCCGUUCGGAUCUGCACUUCCA: -0.483
UGGCCCUGGUGGCAUGCGGGGAGGAAGAGGUGGCCUCAUGGAUCGUGGUGGUCCCGGUGAAAUGUUCAGAGGUGGCCGUGGUGGAGACAG: -0.173
AUUAAGGUCACCGUUGCAGGCCUGGCUGGAAAAGACCCAGUACAGUGUAGCCGUGAUGUGGUCAUUUGUCCUGAUGCCAGCCUUGAAGAU: -0.974
UAACUUUAGAGGAGGAUCUGAUGGAUAUGGCAGUGGACGUGGAUUUGGGGAUGGCUAUAAUGGGAAUGGAGGAGGACCUGGAGGUGGCAA: 0.235
GCAGGAAGUAAAAACAAAUGGAAAUGCUUCGGAUAGUGGCAGGGGUGGGGGUUGCUAAGGAAAGGGUGGGAUGGGAGUGGGUACAGAGUU: 0.386
UGGCCCUGGUGGCAUGCGGGGAGGAAGAGGUGGCCUCAUGGAUCGUGGUGGUCCCAGUGGAAUGUUCAGAGGUGGCCGUGGUGGAGACAG: -0.266
UGUUUUAAGGUUGCCAACUUUGCAACAAUGGAAGAUGAAGAAGAGCUAGAAGAGCGUCCUCACAAGGACUGGGAUGAGAUCAUUCCAGAG: -1.29
UAACUUUAGAGGAGGAUCUGAUGGAAAUGGCAGUGGACGUGGAUUUGGGGAUGGCUAUAAUGGGUAUGGAGGAGGACCUGGAGGUGGCAA: 0.256
CCUCAAGUCCUGUGCUACACAUCGUAUGUACCGAAUCGGCCGGCCGGCCGGGAAAGUAUUAUGUUACGCCGUUCGGAUCUGCACUUCCAG: -0.345
AGUCCUGUGCUACACAUCGUAUGUACCGAAUCGGGGAAAAGGGAAAAGGGAAAAGGGAAAGUAUUAUGUUACGCCGUUCGGAUCUGCACU: 0.197
ACCAUGCAUGUGGGCAUCUUUGGGAAGUGGGGCAAGGGGGGGAUAGGGAGGGGGGUAACACUUUGGGAACAGGUGGUCCCAGGUCGUUUC: 0.785

Block 4 — method: RNA Bind-n-Seq; form: RNA; sample: in vitro; tested at: 365 nM; baseline: no-protein control; direction: higher = stronger binding; quantity: RBNS enrichment (R)
Target: RNA binding protein fox-1 homolog 2, RRM domain, GST-SBP tag (RBFOX2, Homo sapiens, UniProt O43251-10, residues 100-194)
Notes: natural RNA segment, single round, ends assumed
All sequences stand within: GGGAGUUCUACAGUCCGACGAUC … UGGAAUUCUCGGGUGCCAA
Target sequence (chain): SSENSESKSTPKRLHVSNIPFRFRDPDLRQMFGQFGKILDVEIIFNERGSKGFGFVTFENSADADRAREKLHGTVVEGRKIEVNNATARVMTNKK
ACCAUGAGAACAGAAAUUACCUUGUGACAAGACAAGUGUUCUCAGUUUUCUCCUCACAUAUUGACGGUUUAUUUCCCUGGCCUCCUAGAAGGCUGAAUCCUUUUGACUCC: 0.291
UUUUAACUUUCUCCCUCUAUGACACAAAUGAAUUGAGGGUAGGAGGAGGGUGCACAUAACCCUUACCCUACCUCUGCCAAAAAGUGGGGGCUGUACUGGGGACUGCUCGG: 0.606
CCAGAAUCCUUGACUCCCUGCCCCUUGUAUAAAUUGGACAGCUUAGGACUUUUAAACUUUAGAUCAAAAGAUAUGGUCCUUUUUAACUUUAUUUUUAAGGAGCAGACUUU: 0.422
CGAGCACACUGCCCCCGGUUGCCUGCCUGGGCCCCAUGUGGAAGGCAGAUGCCUGCUCGCUCUGUCACCUGUGCCUCUCAGAACACCAGCAGUUAACCUUCAAGACAUUC: 0.278
UUAACAGCUGAGCCUUGGACCCCACUGCCUCUGAGUCUACAUUCUGGCAGGCAGUCCCAUGCUCUGGGCCUUACCUCUAGUCCCCUGCCUGCUCACACCUGGUCCCCUAG: 0.285
AAUGGCUUUCACUUUCUCUUUUGUUUUAAAUGACUCAUAGGUCCCUGACAUUUAGUUGAUUAUUUUCUGCUACAGACCUGGUACACUCUGAUUUUAGAUAAAGUAAGCCU: 0.347
AUAGUGUUGGUGAGUUCAAGUCAUCACGCCAAGUGCUUGCCAUCCUGGUUGCUAUUCUAAGAAUAAUUAGGAGGAGGAACCUAGCCAAUUGCAGCUCAUGUCCGUGGGUG: 0.187
UCUAUCCUCAACCUACAUCCAGAUCCUAUGUGCUGCUUGCACAGAGGCCUUUGGCUUUUGACCCAGGAGGGCCGCGAGGCUGGAGCUGCCCUGUCUUUCAUUGAGCCUUA: 0.409
UAUUAUUCCUUAAGAACUCUGUGUUAUAUUACCAUGGAACGCCUAAUAAAGCAAAAUGUGGUUGUUUCAGGGGUGUGUCUGUAUUGAGAUGUUCGGGAGGCGGCUGCUUG: 0.726
CCAAGAUCAUGCCACUGCACUCCAGCCUGGGCAACACAGCGAGACUCCGUCUCAAAAAGAAAAAGUUUGGAUCAGGCAGGGUGGCUCACACCUGUAAUCCCUGCACUUUG: 0.699
UCCCCCCUUGUGAAUGUUUUCUAACUUUGUCUUGGUAAUUGCAAUUUAACUAGGUGCGGUGGCUACUAAAGUUCGAAGGCACGAUAUGCGUGUCCAUCCUUACCAAAGGA: 0.46
CACCAGCCUGUUUCUGAGACCACAGAAGAAAACCCCAGGGAUGGAUUUAUGAACAGCUGUGUCUGCUACAUACACGUGCCCCUGUCUGAAGGCCAAGUGAUGGCUUCUGU: 0.356

Excerpt of the above (block 2):
2'F-ANA at 2 5 6 10 11 12 14: 62.7 a.u.
2'F-ANA at 1 3 5 6 8 12 13 15: 97.7 a.u.
2'F-ANA at 5 7 9 10 11 13: 48 a.u.
2'F-ANA at 7 8 9 10 12: 224 a.u.
